Results gathered from unrelated publications.
Several values in a cell are separate wells, animals, samples, runs or records. ± gives the spread as reported.

With `Cn1cc(-c2cnc3[nH]cc(-c4cn(Cc5cccc(F)c5F)nn4)c3c2)cn1` the inhibition was 89.2% (Plasmodium falciparum; schizont egress, Nluc release; Hyp1-Nluc; 10 x growth EC50, 4 h).
With `Cc1cc(OC(C)C)ccc1C(=O)C(C)(C)NC(=O)c1sccc1C` the inhibition was 84.9 ± 9% (Botrytis cinerea; germ tube elongation; B05.10; 0.1 µg/mL).
For `CC/N=C(\c1ccc(OC)c(OC)c1)N1CCCc2cc(C3=NNC(=O)SC3C)ccc21` (stereo not shown), the inhibition was 79.7% (Plasmodium falciparum; schizont egress, Nluc release; Hyp1-Nluc; 10 x growth EC50, 4 h).
For `Cc1ccc(NC(=O)N2Cc3[nH]cnc3C[C@H]2c2nc(-c3ccc4c(c3)OCO4)no2)cc1`, the median lifespan was 21 days (Caenorhabditis elegans; N2; 12.5 µM).
The parasite growth of `O=C(Nc1ccc(CNc2ncnc3ccccc23)cc1)c1ccc(Cl)c(F)c1` is reported as 16.4% (Plasmodium falciparum; LDH readout; 3D7 Hyp1-Nluc; 2 µM, 72 h; baseline: DMSO).
`CN1CCC[C@H](OCC(=O)N2CCC[C@H](C(=O)NCc3nc(-c4ccc(C(F)(F)F)cc4)cs3)C2)C1` gave an EC50 of 0.025 ± 0.0036 µM (Plasmodium falciparum; SYBR Green growth; asexual blood-stage parasites, 3D7; 72 h).
With `Nc1nc(-c2ccccc2)nc2[nH]nc(Nc3ccc(C(F)(F)F)cc3)c12` the clinical score was 0.22 (coxsackievirus B3; 31-1-93, NMRI mice, CVB3 chronic myocarditis; oral, 100 mg/kg twice daily, day 10, dosed days 1 to 7, score scale 0 to 7; direction not given).
`CC(=Nc1ccc(N=Cc2cnccn2)cc1)N(C)C` has an anthelmintic rate of 100% (Necator americanus; hamster (Mesocricetus auratus), infected; oral, 50 mg/kg single dose, 24 h).
`COc1ccc(CNc2nc(-c3ccc(C(=O)O)nc3)nc3sc4c(c23)CCCC4)cc1Cl` gave a parasite growth of 0.235% (Plasmodium falciparum; nanoluciferase readout; 3D7 Hyp1-Nluc; 20 µM, 72 h; baseline: DMSO).
Under “zone of inhibition”, `O=C1C(Cl)=C(n2ccnc2)C(=O)c2ccccc21` is recorded as 9 mm (Serratia marcescens; MTCC 4301; 10 µg/mL).
With `Cc1cc2c(C(C)C)c(O)c(O)c(C=O)c2c(O)c1-c1c(C)cc2c(C(C)C)c(O)c(O)c(C=O)c2c1O` the fluorescein ingestion was -65.7% (Drosophila melanogaster; fluorescence; liquid food, 40 µg/mL, first instar larvae; baseline: solvent).
`C[C@](C#N)(COc1cc(C#N)ccc1C(F)(F)F)NC(=O)c1ccc(SC(F)(F)F)cc1` has a selectivity ratio of 76.4 (Haemonchus contortus; 7 days; baseline: IC50 MCF-10A over IC50 L4 development).
The growth of `COC(=O)[C@@H](NCc1cc2ccccc2nc1OCc1ccccc1)C(C)C` is reported as 97.8% (Pseudomonas aeruginosa; 4 µg/mL, with: pentamidine 100 µM; baseline: control).
With `C[C@@H](c1ncncc1F)[C@](O)(Cn1cncn1)c1ccc(F)cc1F` the MIC was ≤ 0.03 µg/mL (Blastomyces dermatitidis; BD-2).
Under “MIC of compound in combination”, `N=C(N)c1ccc(OCc2cccc(COc3ccc(C(=N)N)cc3)c2)cc1` is recorded as 25 µg/mL (Escherichia coli; checkerboard; mcr-1 polymyxin-resistant; concentration not given, 20 h, with: rifampicin).
With `O=C1NC(=O)C(c2ccccc2)(c2ccccc2)N1` the fluorescein ingestion was 21% (Drosophila melanogaster; fluorescence; liquid food, 40 µg/mL, first instar larvae; baseline: solvent).
With `CC(C)n1ncc2c(C(=O)NCC3(C)CNC3)cc(C3CC3)nc21` the plaque area was 110% and 97.4% (Enterovirus D68; viral replication; RD, US/MO/14-18947; 0.003 µM; baseline: untreated).
`N[C@H](C(=O)O)[C@H]1C[C@@H]1C(=O)O` has a fluorescein ingestion of 17.7% (Drosophila melanogaster; liquid food feeding; 40 µg/mL, first instar larvae; baseline: solvent).
With `CCOCC(=O)N1CCC[C@H](C(=O)NCc2nc(-c3ccccc3)cs2)C1` the EC50 was 0.037 ± 0.0032 µM (Plasmodium falciparum; SYBR Green growth; asexual blood-stage parasites, 3D7; 72 h).

Some of these lines once more:
With `Cn1cc(-c2cnc3[nH]cc(-c4cn(Cc5cccc(F)c5F)nn4)c3c2)cn1` the inhibition was 89.2% (Plasmodium falciparum; schizont egress, Nluc release; Hyp1-Nluc; 10 x growth EC50, 4 h).
